# Experimental data pooled from the literature.
# Compare with care: the assays were run in different laboratories. ± marks the error that the study gave.
# Target: ATP-dependent translocase ABCB1 (ABCB1, Homo sapiens, UniProt P08183)
# UniProt P08183, sequence (whole entry, looked up): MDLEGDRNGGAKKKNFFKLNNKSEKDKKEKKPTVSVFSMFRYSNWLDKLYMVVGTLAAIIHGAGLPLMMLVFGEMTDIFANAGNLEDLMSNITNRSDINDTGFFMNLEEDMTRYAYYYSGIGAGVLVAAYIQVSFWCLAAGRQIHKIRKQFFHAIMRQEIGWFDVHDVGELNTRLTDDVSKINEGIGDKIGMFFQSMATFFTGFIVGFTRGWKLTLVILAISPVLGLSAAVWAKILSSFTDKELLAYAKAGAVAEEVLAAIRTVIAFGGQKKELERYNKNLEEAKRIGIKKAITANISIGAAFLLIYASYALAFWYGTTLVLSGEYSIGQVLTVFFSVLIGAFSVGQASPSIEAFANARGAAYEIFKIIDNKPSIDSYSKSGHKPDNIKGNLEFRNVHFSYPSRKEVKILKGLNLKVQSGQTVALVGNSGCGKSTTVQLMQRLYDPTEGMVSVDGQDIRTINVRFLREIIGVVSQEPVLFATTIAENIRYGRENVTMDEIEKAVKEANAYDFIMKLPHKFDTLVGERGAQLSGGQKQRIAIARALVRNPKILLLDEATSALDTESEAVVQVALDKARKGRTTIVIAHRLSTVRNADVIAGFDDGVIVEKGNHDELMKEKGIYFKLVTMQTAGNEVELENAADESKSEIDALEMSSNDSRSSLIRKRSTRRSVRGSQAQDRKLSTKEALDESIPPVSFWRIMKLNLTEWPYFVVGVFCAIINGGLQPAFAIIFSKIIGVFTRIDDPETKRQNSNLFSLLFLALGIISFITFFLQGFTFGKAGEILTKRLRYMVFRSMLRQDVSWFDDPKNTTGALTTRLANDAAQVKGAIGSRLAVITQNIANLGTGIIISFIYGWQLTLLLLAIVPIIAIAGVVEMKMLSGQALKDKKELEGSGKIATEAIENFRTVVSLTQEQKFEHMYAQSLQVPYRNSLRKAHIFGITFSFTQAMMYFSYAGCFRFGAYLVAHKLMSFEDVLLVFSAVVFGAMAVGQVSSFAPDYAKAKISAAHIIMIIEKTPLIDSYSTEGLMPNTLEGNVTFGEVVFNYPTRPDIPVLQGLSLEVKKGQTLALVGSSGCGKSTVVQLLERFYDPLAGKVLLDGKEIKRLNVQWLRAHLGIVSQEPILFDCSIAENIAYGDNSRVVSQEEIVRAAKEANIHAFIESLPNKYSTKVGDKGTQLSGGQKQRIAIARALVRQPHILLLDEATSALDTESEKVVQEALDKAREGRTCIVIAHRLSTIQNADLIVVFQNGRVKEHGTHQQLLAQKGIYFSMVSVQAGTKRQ
test,test system,setting,measurement,value,Compound
,MDCK-MDR1,,Papp B-A,7.2 ×10⁻⁶ cm/s,C=CC(=O)N1CC2C(=O)N(CCN(C)C)c3c(c4cc(Cl)c(-c5c(O)cccc5F)nc4n(-c4c(C)ccnc4C(C)C)c3=O)N2CC1C (stereo not drawn)
,MDCK-MDR1 and wild-type MDCK,"10 µM, 1 h, pH 7.4",effective efflux ratio,1.7,OCCn1nc(-c2ccccc2)c2c(Cl)c(-c3ccccc3)nnc21
,ABCB1-expressing cell monolayer,"10 µM, apical to basolateral",apparent permeability,0.5 ×10⁻⁶ cm/s,Cc1cc(C(=O)N[C@@H](CC(=O)NC(C)(C)C)C(=O)NCCNC(=O)c2cc(-c3ccccc3)ccn2)no1
bidirectional transport,"LLC-PK1, human MDR1, transfected with",10 µM,Papp B to A,5.68 ± 0.22 ×10⁻⁶ cm/s,CNc1nc(N)nc2c1ncn2[C@@H]1O[C@H](CO[P@](=O)(O)N[C@@H](C)C(=O)O)[C@@H](O)[C@@]1(C)F
,MDCK-MDR1 monolayers,"5 µM, 120 min, pH 7.4, with: valspodar 1 µM",efflux ratio,0.49,C/C(N)=N/C(=N\S(=O)(=O)c1ccc(C(F)(F)F)cc1)N1C[C@H](c2ccccc2)C(c2ccc(Cl)cc2)=N1
bidirectional transport,"LLC-PK1, human MDR1, transfected with",10 µM,Papp A to B,14.7 ± 1.1 ×10⁻⁶ cm/s,C[C@@]1(F)[C@H](O)[C@@H](CO)O[C@H]1n1cnc2c(=O)[nH]c(N)nc21
"binding, SPR",SMALP from MCF-7/ADR,,Rmax,236 RU,N[C@H]1[C@H](O[C@H]2[C@H](O)[C@@H](N)[C@H](O[C@H]3[C@H](O)[C@@H](N)[C@H](O[C@H]4[C@H](O)[C@@H](N)C(O)O[C@@H]4CO)O[C@@H]3CO)O[C@@H]2CO)O[C@H](CO)[C@@H](O)[C@@H]1O (stereo partly drawn)
bidirectional transport,"LLC-PK1, human MDR1, transfected with","10 µM, with: zosuquidar 1 µM",Papp B to A,17.7 ± 1.9 ×10⁻⁶ cm/s,CNc1nc(N)nc2c1ncn2[C@@H]1O[C@H](CO)[C@@H](O)[C@@]1(C)F
,ABCB1-expressing cell monolayer,"10 µM, apical to basolateral",apparent permeability,0 ×10⁻⁶ cm/s,Cc1cc(C(=O)N[C@@H](CC(=O)NC(C)(C)C)C(=O)NCCNC(=O)c2cccc(-c3cc[nH]n3)c2)no1

# Repeated from above:
test,test system,setting,measurement,value,Compound
,ABCB1-expressing cell monolayer,"10 µM, apical to basolateral",apparent permeability,0 ×10⁻⁶ cm/s,Cc1cc(C(=O)N[C@@H](CC(=O)NC(C)(C)C)C(=O)NCCNC(=O)c2cccc(-c3cc[nH]n3)c2)no1
